Assay results from different studies.
Numbered parts are unrelated; each lists some results of a single study. Positions count from the first letter of the parent shown.
Chain of UniProt O75417 (whole entry, unmodified, looked up): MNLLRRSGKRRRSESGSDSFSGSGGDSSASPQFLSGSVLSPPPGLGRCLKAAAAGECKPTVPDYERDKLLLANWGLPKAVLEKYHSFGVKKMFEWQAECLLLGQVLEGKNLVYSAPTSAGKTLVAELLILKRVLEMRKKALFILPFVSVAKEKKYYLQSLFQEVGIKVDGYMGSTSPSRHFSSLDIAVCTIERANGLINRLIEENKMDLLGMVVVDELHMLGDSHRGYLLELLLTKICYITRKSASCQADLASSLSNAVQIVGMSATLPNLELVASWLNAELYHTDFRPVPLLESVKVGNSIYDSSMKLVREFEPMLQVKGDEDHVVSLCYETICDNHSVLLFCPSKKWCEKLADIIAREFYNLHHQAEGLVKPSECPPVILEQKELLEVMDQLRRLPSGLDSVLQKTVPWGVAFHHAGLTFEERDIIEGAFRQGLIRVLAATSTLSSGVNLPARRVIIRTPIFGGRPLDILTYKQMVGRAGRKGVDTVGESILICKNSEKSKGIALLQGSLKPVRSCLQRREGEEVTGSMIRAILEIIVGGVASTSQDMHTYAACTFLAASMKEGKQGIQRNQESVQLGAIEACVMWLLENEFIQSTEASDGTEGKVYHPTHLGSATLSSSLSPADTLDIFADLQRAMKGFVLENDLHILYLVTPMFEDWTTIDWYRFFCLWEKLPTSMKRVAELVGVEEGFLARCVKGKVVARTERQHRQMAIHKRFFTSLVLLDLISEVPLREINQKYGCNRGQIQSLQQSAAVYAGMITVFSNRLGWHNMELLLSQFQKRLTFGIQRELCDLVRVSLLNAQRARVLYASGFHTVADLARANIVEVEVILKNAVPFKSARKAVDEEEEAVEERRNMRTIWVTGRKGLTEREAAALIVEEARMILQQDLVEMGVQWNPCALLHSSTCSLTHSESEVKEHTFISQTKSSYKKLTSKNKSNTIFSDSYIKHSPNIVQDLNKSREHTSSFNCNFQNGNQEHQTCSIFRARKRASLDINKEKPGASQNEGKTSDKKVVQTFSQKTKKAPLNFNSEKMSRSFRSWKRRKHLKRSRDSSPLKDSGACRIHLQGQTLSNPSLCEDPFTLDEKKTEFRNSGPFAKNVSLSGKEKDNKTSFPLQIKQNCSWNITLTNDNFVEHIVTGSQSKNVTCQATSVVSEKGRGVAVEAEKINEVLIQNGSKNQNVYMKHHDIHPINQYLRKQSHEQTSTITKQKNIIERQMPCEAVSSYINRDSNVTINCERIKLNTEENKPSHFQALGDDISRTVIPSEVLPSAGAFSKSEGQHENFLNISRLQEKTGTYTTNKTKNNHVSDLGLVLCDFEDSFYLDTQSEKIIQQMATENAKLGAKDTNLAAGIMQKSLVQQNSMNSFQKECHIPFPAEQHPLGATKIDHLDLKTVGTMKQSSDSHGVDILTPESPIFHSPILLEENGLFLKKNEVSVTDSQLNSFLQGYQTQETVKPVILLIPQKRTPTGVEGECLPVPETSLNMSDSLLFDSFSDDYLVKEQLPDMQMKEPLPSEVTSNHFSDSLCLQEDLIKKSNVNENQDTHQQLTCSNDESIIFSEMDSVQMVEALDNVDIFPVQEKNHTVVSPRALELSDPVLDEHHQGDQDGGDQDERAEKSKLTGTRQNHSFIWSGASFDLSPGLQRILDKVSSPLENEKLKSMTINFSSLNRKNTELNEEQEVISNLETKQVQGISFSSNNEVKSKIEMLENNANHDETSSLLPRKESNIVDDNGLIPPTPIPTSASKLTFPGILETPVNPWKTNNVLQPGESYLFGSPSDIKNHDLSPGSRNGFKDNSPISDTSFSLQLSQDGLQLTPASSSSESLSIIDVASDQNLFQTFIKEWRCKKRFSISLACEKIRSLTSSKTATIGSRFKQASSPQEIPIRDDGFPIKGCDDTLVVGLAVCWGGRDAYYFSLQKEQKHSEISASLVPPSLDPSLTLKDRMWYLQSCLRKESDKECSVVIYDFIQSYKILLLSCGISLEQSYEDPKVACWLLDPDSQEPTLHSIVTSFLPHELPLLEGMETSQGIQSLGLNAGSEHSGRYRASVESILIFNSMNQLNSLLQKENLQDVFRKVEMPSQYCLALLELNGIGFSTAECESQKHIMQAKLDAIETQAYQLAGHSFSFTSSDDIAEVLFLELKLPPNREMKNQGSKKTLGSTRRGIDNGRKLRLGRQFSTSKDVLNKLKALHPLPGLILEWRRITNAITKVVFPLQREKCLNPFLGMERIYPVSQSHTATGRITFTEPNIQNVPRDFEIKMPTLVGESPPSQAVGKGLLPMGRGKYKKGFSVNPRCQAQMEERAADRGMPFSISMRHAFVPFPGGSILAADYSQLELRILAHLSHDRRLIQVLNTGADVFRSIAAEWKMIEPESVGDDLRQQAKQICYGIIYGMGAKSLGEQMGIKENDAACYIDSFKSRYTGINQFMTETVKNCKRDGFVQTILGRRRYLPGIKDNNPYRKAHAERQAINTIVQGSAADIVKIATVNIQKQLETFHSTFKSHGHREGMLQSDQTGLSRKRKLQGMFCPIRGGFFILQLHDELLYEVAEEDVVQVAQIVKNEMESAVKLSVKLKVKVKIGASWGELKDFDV

Block 1 — target: inorganic phosphate, free oxyanion; technique: microfluidic competitive inhibition; medium: in vitro, cell-free expressed; tested at: not given; reading: lower = stronger binding
Setting: derived from inhibition constants, unchanged parent 615000 nM
Starting sequence: PafA, mature enzyme, eGFP fusion (Elizabethkingia meningoseptica, UniProt Q9KJX5); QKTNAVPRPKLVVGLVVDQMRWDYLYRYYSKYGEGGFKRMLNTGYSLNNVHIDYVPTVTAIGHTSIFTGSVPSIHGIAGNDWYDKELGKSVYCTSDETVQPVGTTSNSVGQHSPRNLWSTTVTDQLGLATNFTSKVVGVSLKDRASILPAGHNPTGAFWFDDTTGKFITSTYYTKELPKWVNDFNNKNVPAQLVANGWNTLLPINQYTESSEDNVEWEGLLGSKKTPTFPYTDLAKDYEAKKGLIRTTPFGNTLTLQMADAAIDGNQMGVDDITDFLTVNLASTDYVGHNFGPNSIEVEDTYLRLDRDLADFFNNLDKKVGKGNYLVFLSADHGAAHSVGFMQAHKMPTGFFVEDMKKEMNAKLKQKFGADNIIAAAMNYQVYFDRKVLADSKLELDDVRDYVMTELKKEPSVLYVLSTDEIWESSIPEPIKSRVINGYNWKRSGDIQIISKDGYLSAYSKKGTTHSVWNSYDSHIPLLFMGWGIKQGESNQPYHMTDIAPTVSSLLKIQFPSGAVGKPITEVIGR
Variant	phosphate dissociation constant [µM]
P230V	567
G525V	653
S134V	526
V279A	507
I61V	413
V6G	542
D18G	< 131
V189A	696

Block 2 — read-out: phage display binding; technique: phage display panning NGS; molecule type: peptide; reference: OGT-panned over input library
Target: UDP-N-acetylglucosamine--peptide N-acetylglucosaminyltransferase 110 kDa subunit (OGT, Homo sapiens, UniProt O15294)
Chain of UniProt O15294 (whole entry, looked up): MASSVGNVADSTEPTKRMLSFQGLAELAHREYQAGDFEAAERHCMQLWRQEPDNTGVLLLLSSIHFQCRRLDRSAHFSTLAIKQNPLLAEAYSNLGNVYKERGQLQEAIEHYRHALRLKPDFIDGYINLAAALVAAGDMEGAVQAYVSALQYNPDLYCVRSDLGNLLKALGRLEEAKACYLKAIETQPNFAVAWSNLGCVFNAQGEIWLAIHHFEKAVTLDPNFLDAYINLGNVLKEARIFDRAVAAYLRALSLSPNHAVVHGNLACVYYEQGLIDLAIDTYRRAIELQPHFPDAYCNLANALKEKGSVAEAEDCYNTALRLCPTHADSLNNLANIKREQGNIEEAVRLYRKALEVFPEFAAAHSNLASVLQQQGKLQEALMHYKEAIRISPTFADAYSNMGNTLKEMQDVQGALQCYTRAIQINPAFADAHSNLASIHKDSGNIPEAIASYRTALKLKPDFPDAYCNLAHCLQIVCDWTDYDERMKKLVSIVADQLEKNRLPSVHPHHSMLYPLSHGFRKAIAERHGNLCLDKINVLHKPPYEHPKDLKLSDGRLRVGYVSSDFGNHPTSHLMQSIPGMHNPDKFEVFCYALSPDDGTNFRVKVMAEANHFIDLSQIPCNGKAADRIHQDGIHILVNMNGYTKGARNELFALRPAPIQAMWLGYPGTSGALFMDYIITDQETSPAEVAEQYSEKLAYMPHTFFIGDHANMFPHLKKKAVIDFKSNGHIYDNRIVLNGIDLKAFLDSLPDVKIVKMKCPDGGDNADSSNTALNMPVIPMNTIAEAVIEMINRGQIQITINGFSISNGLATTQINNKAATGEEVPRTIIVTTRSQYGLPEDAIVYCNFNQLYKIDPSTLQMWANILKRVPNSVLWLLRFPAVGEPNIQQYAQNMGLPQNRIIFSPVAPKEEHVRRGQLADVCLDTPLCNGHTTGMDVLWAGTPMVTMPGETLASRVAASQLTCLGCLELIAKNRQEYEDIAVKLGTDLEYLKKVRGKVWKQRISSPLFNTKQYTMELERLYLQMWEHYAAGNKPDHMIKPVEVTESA
Molecule	log2 fold enrichment
HFADSRSWHHYSTGH	1.98
GPNHIHHGHSEPHHI	3.61
HWTSMAFMHHWEPE	2.66
SYFPVYQIQSFYPVT	3.31
RVNHHWGFNTHTYTA	2.28
RFFQPAYQIMPQSYR	2.09
NFLPQYQITAGAYET	3.71
QLYPVDKHHTHHHVT	3.07

Other studies, line by line
SMILES	target or system	test	system	conditions	how to read	quantity	value
O=C1CCC(N2Cc3c(ccc4c3OCC43CCN(Cc4ccccc4)CC3)C2=O)C(=O)N1 (stereo not shown)	–	metabolic stability	mouse, liver microsomes	1 µM	–	scaled CLint	78.6 mL/min/kg
N[C@@H]1C[C@H]1c1ccccc1	DNA polymerase theta, ATPase domain (POLQ, Homo sapiens, UniProt O75417)	inhibitor	–	77 µM	–	remaining activity	106%
COc1cc(N)c(Cl)cc1C(=O)NC1CN2CCC1CC2 (stereo not shown)	mouse MPNST tumor cells	high-content immunofluorescence imaging, refers to: nuclear SOX9	–	10 µM, 12 h, mean of 2 replicates	reference: DMSO control, higher = more nuclear SOX9	nuclear SOX9 intensity	101 % of DMSO

Excerpt of the above (block 1):
Variant	phosphate dissociation constant [µM]
V189A	696
D18G	< 131
V279A	507
